Published values pooled from the literature.
Every numbered part comes from another study and shows a few of its results, in no order. Positions count from the first letter of the parent shown.

Series 1 — target: CCND2, cyclin fold, Cln2 fusion (human); technique: yeast growth competition, sequencing; matrix: yeast; setting: weak parent motif; baseline: not given; direction: higher = stronger binding
Parent: SCAPER docking peptide (human); SNARRSLNFGGST; partner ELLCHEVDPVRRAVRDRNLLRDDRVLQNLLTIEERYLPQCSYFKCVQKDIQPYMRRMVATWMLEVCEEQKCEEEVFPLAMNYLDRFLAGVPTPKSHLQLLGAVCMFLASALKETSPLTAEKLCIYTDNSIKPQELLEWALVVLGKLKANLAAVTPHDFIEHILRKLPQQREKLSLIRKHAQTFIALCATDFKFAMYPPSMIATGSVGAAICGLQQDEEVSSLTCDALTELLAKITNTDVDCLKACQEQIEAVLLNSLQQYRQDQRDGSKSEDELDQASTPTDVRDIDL
For `N2Q`, “normalised enrichment score” read 0.218.
`F9T`: “normalised enrichment score” 0.267.
Under “normalised enrichment score”, `L7K` is recorded as 0.242.
For `F9H`, “normalised enrichment score” read 0.0308.
For `G11Q`, “normalised enrichment score” read 0.427.
`R5L`: “normalised enrichment score” 0.204.
`R5V` — result for “normalised enrichment score”: 0.426.
For `S6I`, “normalised enrichment score” read 0.672.
For `L7V`, “normalised enrichment score” read 0.0486.
`G11I` — result for “normalised enrichment score”: 0.331.
Under “normalised enrichment score”, `G11F` is recorded as 0.206.
For `R4Y`, “normalised enrichment score” read 0.154.
`R4P`: “normalised enrichment score” -0.255.
`F9R`: “normalised enrichment score” 0.223.
`R5K F9L`: “normalised enrichment score” 0.00487.
Under “normalised enrichment score”, `F9G` is recorded as -0.334.

Series 2 — target: UBE2B UBC core domain (UniProt P63146); technique: yeast two-hybrid; matrix: yeast; setting: mostly zero background; baseline: not given; direction: higher = stronger interaction
Chain of UniProt P63146 (whole entry, looked up): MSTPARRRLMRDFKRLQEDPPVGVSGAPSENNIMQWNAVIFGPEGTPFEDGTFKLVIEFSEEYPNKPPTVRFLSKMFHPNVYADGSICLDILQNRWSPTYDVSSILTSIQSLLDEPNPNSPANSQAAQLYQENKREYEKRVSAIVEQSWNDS
B1: RNF166 RING domain (UniProt Q96A37); chain GDSGLEAQYTCPICLEVYHRPVAIGSCGHTFCGECLQPCLQVPSPLCPLCRLPFDPKKVDK
B2: TRIM22 RING domain (UniProt Q8IYM9); chain VKVDIEKEVTCPICLELLTEPLSLDCGHSFCQACITAKIKESVIISRGESSCPVCQTRFQPGNLRP
B3: TRIM26 RING domain (UniProt Q12899); chain PLRSLEEEVTCSICLDYLRDPVTIDCGHVFCRSCTTDVRPISGSRPVCPLCKKPFKKENIRP
B4: RNF122 RING domain (UniProt Q9H9V4); chain AKKLQLYGQTCAVCLEDFKGKDELGVLPCQHAFHRKCLVKWLEVRCVCPMCNKPIASPSEAT
B5: RNF187 RING domain (UniProt Q5TA31); chain ALPAGPAEAACALCQRAPREPVRADCGHRFCRACVVRFWAEEDGPFPCPECADDCWQRAVEP
For `PEELAVNNDDCAICWDSMQAARKLPCGHLFHNSCLRSWLEQDTSCPTCRMSLNIADNNR (AMFR RING domain (UniProt Q9UKV5))`, “lacZ reporter activity” read 0.
`B1 (RNF166 RING domain)` — result for “lacZ reporter activity”: 0.
For `YCEMGSTFQLCKICAENDKDVKIEPCGHLMCTSCLTAWQESDGQGCPFCRCEIKGTEPII (CBLB RING domain (UniProt Q13191))`, “lacZ reporter activity” read 0.
`YPEEVDDDLICHICLQALLDPLDTPCGHTYCTLCLTNFLVEKDFCPMDRKPLVLQHCKK (LNX1 RING domain (UniProt Q8TBB1))`: “lacZ reporter activity” 0.
Under “lacZ reporter activity”, `B2 (TRIM22 RING domain)` is recorded as 0.
`AEADPLGRFTCPVCLEVYEKPVQVPCGHVFCSACLQECLKPKKPVCGVCRSALAPGVRAV (RNF114 RING domain (UniProt Q9Y508))` — result for “lacZ reporter activity”: 0.
Under “lacZ reporter activity”, `LGTKLEAKYLCSACRNVLRRPFQAQCGHRYCSFCLASILSSGPQNCAACVHEGIYEEGIS (TRAF2 RING domain (UniProt Q12933))` is recorded as 0.
Under “lacZ reporter activity”, `B3 (TRIM26 RING domain)` is recorded as 0.
`B4 (RNF122 RING domain)`: “lacZ reporter activity” 0.
`B5 (RNF187 RING domain)` — result for “lacZ reporter activity”: 0.
Under “lacZ reporter activity”, `MNDVLENELQCIICSEYFIEAVTLNCAHSFCSYCINEWMKRKIECPICRKDIKSKTYSL (RNF8 RING domain (UniProt O76064))` is recorded as 0.

Series 3 — technique: RNA Bind-n-Seq; form: RNA; matrix: in vitro; concentration: 200 nM; setting: whole 134-nt RNA, ends assumed; with: 150 mM KCl; baseline: input library; direction: higher = stronger binding
Target: Fragile X messenger ribonucleoprotein 1, C-terminal low-complexity region (Fmr1, Mus musculus, UniProt P35922)
`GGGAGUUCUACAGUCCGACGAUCGUGCUACACAUCGUAUGUACCGAAUCGGGGUUUUUUUGGGGUUUUUUUGGGGUUUUUUUGGGGAAAGUAUUAUGUUACGCCGUUCGGAUCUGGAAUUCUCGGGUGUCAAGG` has a log2 enrichment of 0.629.
The log2 enrichment of `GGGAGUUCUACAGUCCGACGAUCUUCAAAACAGAAUCCUUCCAGUCCUCUUCAGCGUUUAAUUCCAGGCUCAAACUUGGACAGUGAACCCAGAAUUCAAACAGAUAUACUAAAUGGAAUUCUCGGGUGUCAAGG` is reported as 0.451.
For `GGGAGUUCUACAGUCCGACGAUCUGGCCCUGGUGGCAUGCGGGGAGGAAGAGGUGGCCUCUUGGAUCGUGGUGGUCCCGGUGGAAUGUUCAGAGGUGGCCGUGGUGGAGACAGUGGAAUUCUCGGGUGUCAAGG`, the log2 enrichment was 0.0386.
With `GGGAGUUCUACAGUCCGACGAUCCUCAAGUCCUGUGCUACACAUCGUAUGUACCGAAUCGGAAAAAGGAAAGGUGGAAAGUAUUAUGUUACGCCGUUCGGAUCUGCACUUCCAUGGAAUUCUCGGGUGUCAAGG` the log2 enrichment was -0.419.
The log2 enrichment of `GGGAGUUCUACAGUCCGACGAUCACCAUGCAGGUGGGCAUCUUUGGGAAGUGGGGCAAGGGGGGGAUAGGGAGGGGGGUAACACUUUGGGAACACGUGGUCCCAGGUCGUUUCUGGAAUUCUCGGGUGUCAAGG` is reported as 0.479.
`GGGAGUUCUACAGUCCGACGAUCCACAGACAACACUCACCCACACAGACACAGAGGGAAGGGGUUGGGAUGGGGACAGGGUGCACAGCAGGGCGGGGUAGGACCCCAGCCCCUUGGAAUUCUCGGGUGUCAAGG` gave a log2 enrichment of 1.3.
`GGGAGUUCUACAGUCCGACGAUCUCCUGUGCUACACAUCGUAUGUACCGAAUCGGGGAAAAAGGGGAAAAAGGGAAAAAGGGGAAAGUAUUAUGUUACGCCGUUCGGAUCUGCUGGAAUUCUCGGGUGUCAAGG` gave a log2 enrichment of 0.0819.
For `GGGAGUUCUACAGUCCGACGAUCGUCCUGUGCUACACAUCGUAUGUACCGAAUCGGGUUUUUUUGGGUUUGGGAAAAAGGGAAAGUAUUAUGUUACGCCGUUCGGAUCUGCACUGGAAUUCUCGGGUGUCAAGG`, the log2 enrichment was -0.379.
The log2 enrichment of `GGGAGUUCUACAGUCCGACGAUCAAGUCCUGUGCUACACAUCGUAUGUACCGAAUCGGGGUUUGGGGAAAGGGGUGGGGAAAGUAUUAUGUUACGCCGUUCGGAUCUGCACUUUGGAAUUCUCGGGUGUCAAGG` is reported as 1.1.

Series 4 — technique: DHFR PCA, deep sequencing; matrix: yeast; with: (+)-ABA 200 µM; baseline: wild-type fitted maximum; direction: higher = stronger binding
Target: ABI1, truncated, D143A, DHFR fusion (Arabidopsis thaliana)
Setting: methotrexate growth selection, single substitutions
Parent: PYL1, truncated, DHFR fusion (Arabidopsis thaliana); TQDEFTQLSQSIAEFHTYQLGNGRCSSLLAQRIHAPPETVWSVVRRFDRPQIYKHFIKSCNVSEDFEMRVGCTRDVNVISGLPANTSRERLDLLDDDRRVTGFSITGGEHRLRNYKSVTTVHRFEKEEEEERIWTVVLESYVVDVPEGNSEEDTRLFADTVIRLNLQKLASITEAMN
Under “relative binding score”, `Q167T` is recorded as 96.3%.
Under “relative binding score”, `G108M` is recorded as 21.9%.
`L94K` — result for “relative binding score”: 20.1%.
Under “relative binding score”, `T120K` is recorded as 0.164%.
`V40R` — result for “relative binding score”: -23%.
`V100R`: “relative binding score” 74.5%.
For `N77F`, “relative binding score” read 106%.
`E139V`: “relative binding score” 95.8%.
Under “relative binding score”, `G81Q` is recorded as 27.2%.
Under “relative binding score”, `R163N` is recorded as 81.6%.
For `V142Y`, “relative binding score” read 77.2%.
`K116T`: “relative binding score” 98.7%.
`D48T`: “relative binding score” 47.8%.
